Measurements of several laboratories.
Every numbered part comes from another study and shows a few of its results, in no order.

Series 1
Target: Interferon regulatory factor 3, full length, phosphomimetic (IRF3, Homo sapiens, UniProt Q14653, residues 1-427, S386D/S396D/S398D/S402D/T404D/S405D)
Method: protein-binding microarray
Molecule type: double-stranded DNA, one strand shown
Sample: in vitro
Concentration: 2540 nM top
Setting: 60-bp whole probe
With: salmon DNA 0.4 mg/ml
Reference: random background probes
Reading: higher = stronger binding
Constant ends, left off below: GCCTAGCAC … GTCTTGATTCGCTTGACGCTGCTG
Residues (chain): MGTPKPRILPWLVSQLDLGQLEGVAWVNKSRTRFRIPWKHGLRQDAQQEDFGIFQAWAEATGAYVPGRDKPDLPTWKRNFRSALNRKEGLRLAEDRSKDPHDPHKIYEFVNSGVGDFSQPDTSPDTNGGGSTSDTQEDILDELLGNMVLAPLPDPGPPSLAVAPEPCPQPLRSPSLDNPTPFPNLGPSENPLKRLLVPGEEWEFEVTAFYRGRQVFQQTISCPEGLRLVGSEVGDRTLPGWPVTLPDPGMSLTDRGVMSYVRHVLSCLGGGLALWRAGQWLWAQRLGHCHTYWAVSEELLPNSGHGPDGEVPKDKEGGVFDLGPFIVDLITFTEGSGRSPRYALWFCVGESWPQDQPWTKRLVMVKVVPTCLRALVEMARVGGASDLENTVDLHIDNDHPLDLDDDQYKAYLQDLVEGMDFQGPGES
| Strand | fitted relative affinity |
| --- | --- |
| GACGATTTCCTTCTCCTGACGTGCTAG | 6.01 z-score |
| TTAGATATCAGTAACGATTAGTGCTAG | 0.14 z-score |
| AGCACTTTGGCATGTCTTGACGTGCTA | -0.8 z-score |
| GACGATTTCGGGTTTCGAGAAGTGCTA | 3.06 z-score |
| ATAGGACTGCTTTTCCTTTAGTGCTAG | 0.978 z-score |
| TTAGATTTCGGGTATCGATTAGTGCTA | 1.6 z-score |
| TTAGGAGTGCTTTTCCTTTAGTGCTAG | 0.972 z-score |
| GACGGTTTCCTTCTCCTCACGTGCTAG | 9.21 z-score |
| TTAGTTTTCAGTTTCGATTAGTGCTAG | 6.16 z-score |
| GACGTACTGCTTCTCCTGACGTGCTAG | 0.0883 z-score |
| TCAATTCTCTTTTCACTACTGTGCTAG | 2.43 z-score |
| TTAGGTATCGGACTGGGTAAGTGCTAG | 1.21 z-score |
| GACGATTTAAGTCTCGAGACGTGCTAG | 0.509 z-score |
| AACGGTATCGGTCTCGGGACGTGCTAG | 4.7 z-score |

Series 2
Target: Ras GTPase-activating protein-binding protein 1, C-terminal RGG region (G3BP1, Homo sapiens, UniProt Q13283)
UniProt Q13283, sequence (whole entry, looked up): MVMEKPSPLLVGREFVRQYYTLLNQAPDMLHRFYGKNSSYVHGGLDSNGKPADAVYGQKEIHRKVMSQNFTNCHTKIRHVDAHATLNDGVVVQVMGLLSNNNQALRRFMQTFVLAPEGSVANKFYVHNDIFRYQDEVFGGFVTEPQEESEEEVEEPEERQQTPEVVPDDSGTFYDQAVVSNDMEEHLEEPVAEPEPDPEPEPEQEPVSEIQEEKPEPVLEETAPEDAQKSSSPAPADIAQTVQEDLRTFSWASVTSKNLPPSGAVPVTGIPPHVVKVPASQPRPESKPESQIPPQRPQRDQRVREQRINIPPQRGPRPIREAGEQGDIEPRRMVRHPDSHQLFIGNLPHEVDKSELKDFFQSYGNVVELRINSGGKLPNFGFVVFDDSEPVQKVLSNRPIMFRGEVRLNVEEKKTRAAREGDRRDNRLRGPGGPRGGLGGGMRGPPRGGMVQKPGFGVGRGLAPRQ
Method: RNA Bind-n-Seq
Molecule type: RNA
Sample: in vitro
Concentration: 1 µM
Setting: whole 134-nt RNA, ends assumed
With: 150 mM KCl
Reference: input library
Reading: higher = stronger binding
| Strand | log2 enrichment |
| --- | --- |
| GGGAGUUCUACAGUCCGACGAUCACCAUGCAGGUGGGCAUCUUUGGGAAGUGGGGCAAGGGGGGGAUAGGGAGGGGGGUAACACUUUGGGAACAGGUGGUCCCAAAUCGUUUCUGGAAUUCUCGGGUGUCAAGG | -0.745 |
| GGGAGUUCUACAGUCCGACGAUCCUCAAGUCCUGUGCUACACAUCGUAUGUACCGAAUCGGGCCGGGCCGGGCCGGAAAGUAUUAUGUUACGCCGUUCGGAUCUGCACUUCCAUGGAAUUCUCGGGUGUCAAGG | -1.5 |
| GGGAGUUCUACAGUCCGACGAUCUCAAGUCCUGUGCUACACAUCGUAUGUACCGAAUCGGAAAAGGAAAAGGAAAAGGAAAGUAUUAUGUUACGCCGUUCGGAUCUGCACUUCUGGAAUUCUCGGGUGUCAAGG | -1.84 |
| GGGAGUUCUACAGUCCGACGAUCCCUCAAGUCCUGUGCUACACAUCGUAUGUACCGAAUCGGUGGUUUGGAAAGGAAAGUAUUAUGUUACGCCGUUCGGAUCUGCACUUCCAGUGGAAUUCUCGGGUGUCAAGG | -0.677 |
| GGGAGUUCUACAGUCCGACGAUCCGCAGAAGUCGCGUGUCUAGGUGAGUCGCGGUGGGUCCUCGCUUGCAGUUCAGCGACCACGGUGGGUACCGUUUUUGCGAGGAUUGUUUGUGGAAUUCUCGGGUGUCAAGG | -1.61 |
| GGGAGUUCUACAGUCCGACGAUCAGUCCUGUGCUACACAUCGUAUGUACCGAAUCGGGAAAGGGUUUUUUUGGGUUUGGGAAAGUAUUAUGUUACGCCGUUCGGAUCUGCACUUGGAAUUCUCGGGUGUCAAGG | 0.179 |
| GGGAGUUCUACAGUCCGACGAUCACCAUGCAGGUGGGCAUCUUUGGGAAGUGGGGCAAGGGGGGGAUAGGGAGGGGGGUAACACUUUGGGAACAAGUGGUCCCAGGUCGUUUCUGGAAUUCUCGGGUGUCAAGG | 2.63 |
| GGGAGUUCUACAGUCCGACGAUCCAAGUCCUGUGCUACACAUCGUAUGUACCGAAUCGGGAAAAAAAGGGUGGGAGGGAAAGUAUUAUGUUACGCCGUUCGGAUCUGCACUUCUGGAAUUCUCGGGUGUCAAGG | 1.36 |
| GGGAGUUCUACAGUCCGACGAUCUAACUUUAGAGGAGGAUCUGAUGGAUAUGGAAGUGGACGUGGAUUUGGGGAUGGCUAUAAUGGGUAUGGAGGAGGACCUGGAGGUGGCAAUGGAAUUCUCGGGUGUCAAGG | -0.845 |
| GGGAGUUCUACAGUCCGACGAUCGUCCUGUGCUACACAUCGUAUGUACCGAAUCGGGGAAAAAGGGAAAAAGGAAAAAGGGGAAAGUAUUAUGUUACGCCGUUCGGAUCUGCAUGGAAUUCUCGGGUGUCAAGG | -0.889 |
| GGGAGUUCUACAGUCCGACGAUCCUCAAGUCCUGUGCUACACAUCGUAUGUACCGAAUCGGGGCGGGGCGGGCGGGGAAAGUAUUAUGUUACGCCGUUCGGAUCUGCACUUCCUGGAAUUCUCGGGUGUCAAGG | 1.83 |
| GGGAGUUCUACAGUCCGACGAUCUGAGAGGUGGAUUUUGUUUAUUUUUUUAGCUCAUUUCCAGGGGUGGGAAUUUUUUUUUAAUAUGUGUCAUGAAUAAAGUUGUUUUUGAAAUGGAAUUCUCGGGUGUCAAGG | 2.8 |

Series 3
Target: RNA binding protein fox-1 homolog 2, RRM domain, GST-SBP tag (RBFOX2, Homo sapiens, UniProt O43251-10, residues 100-194)
Method: RNA Bind-n-Seq
Molecule type: RNA
Sample: in vitro
Concentration: 365 nM
Setting: natural RNA segment, single round, ends assumed
Reference: no-protein control
Reading: higher = stronger binding
Target sequence (chain): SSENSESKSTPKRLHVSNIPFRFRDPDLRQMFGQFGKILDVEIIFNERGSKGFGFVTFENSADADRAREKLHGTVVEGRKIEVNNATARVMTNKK
| Strand | RBNS enrichment (R) |
| --- | --- |
| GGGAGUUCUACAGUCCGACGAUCAAGAACCACAACAACAACCCCCCCAAAAAAUAAUCCAUAUAAUUUAAGUAUAUUGCUGGAGAGAGACUAUCCCACCACCUAUACAUCUACAAAGAUAUAUGUCUAAAGUUUGGAAUUCUCGGGUGCCAA | 0.416 |
| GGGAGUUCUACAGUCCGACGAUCCCACACUAUGUGUGUUGUUUCCAUAGCUCUUCACUUCCUCCAGAAGCCUCCUUACAUUAAAAAGCCUUACAGUUAUCCUGCAAGGGACAGGAAGGUCUGAUUUGCAGGAUUGGAAUUCUCGGGUGCCAA | 0.442 |
| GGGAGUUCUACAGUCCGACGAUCUGUCACUCCUCACCUGAGAGGAAGCAGUGGGUGGUCUGACUCUGCAGCCCAGAGACACAGGAGGCUUCAGGGACAGUGCCCUACUCUAGAAACACCUGCCACUCUAGAUAUGGAAUUCUCGGGUGCCAA | 0.394 |
| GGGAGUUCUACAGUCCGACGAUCCUCUUUACAAACUGGCAUCUUAAGUUUUAGUGCCAUGUCGCUGUAGUCUGCUGCUUUCCUGGGUGGAUGAACCUCUUUAUUAUGGUAACUUCUGUGCUGCUUUGCCCCUAUGGAAUUCUCGGGUGCCAA | 0.85 |
| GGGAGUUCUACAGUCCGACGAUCUGGGGAAGAGUGAAAGAUAUAAAGUAACCUAAUUAAAUGUAUGGAAUUGCUAUUUUUAUAGCUGAUAUAGUUACACCUCAAGCCCCUCAGGGGUAACAACUAACAAACACUGGAAUUCUCGGGUGCCAA | 1.06 |
| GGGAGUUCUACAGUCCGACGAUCUUGAGCUAAAAUAACUUUUGUAAAGAUUAAGCUCAUUUAGAUUUUUUUUAAAGUAUUGCAGCAGGAUCUGCUGCAGGGUUCUGUUGUUUUGUUUUGCUUAUUUUUAAAUUUGGAAUUCUCGGGUGCCAA | 1.12 |
| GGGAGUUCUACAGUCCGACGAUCCCUCUGCCUUCUUUCCUGGAACUCAGGGUGUGGGGACUGAGCCUGUAGGGGACAGCAUGCCGUCUUGCUGUGGCCACUCCCAAGUGUGCCCUCUUCCCUCUUUACACAUCUGGAAUUCUCGGGUGCCAA | 12.3 |
| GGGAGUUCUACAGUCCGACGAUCAGGUCACCCUUGCACGGGUUUGGCCAACACCAUGAAGGAGUUGCCUUGGAGUUUCACCUGCAUAGCUUGCAUCAGCCCCGAGAGGGCAAAGGAGGGUCAGCCUUCCACUUUGGAAUUCUCGGGUGCCAA | 0.354 |
| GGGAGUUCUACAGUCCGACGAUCACUUCCAGGUGGUCUCCUGAGUGUCUGGCUUGAUAAUGCCCUCAAUUCAGGAGUGAGCCUCUGUGACCCUUGGGGUGCUCGCAGAAGGCCUCUCCAAGCAGUCAAGCCCUUGGAAUUCUCGGGUGCCAA | 0.233 |

Series 4
Target: Histone acetyltransferase KAT6A, both winged helices, GST fusion (KAT6A, Homo sapiens, UniProt Q92794, residues 1-181)
Method: protein binding microarray
Molecule type: double-stranded DNA, one strand shown
Sample: in vitro
Concentration: not given
Setting: 8-mer, flanks averaged, mean of 2 arrays, mostly near background
Reference: not given
Reading: higher = stronger binding
Construct (chain): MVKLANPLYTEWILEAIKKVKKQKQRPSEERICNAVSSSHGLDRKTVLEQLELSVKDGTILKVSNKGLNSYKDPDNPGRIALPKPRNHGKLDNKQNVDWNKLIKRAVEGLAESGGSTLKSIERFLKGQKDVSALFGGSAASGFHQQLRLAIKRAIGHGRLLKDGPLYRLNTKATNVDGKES
| Strand | E-score |
| --- | --- |
| CAGCGGTA | 0.201 |
| CAAATGGA | -0.163 |
| ACTATTTA | 0.00642 |
| ATGTGCGG | 0.262 |
| AGCTGCAG | -0.0702 |
| ATTTGTGG | -0.0681 |
| CATTAAGA | -0.163 |
| AGTGTGAA | -0.148 |
| GATACCAA | 0.049 |
| ATTGTCCG | 0.164 |
| AGACGTAG | -0.157 |
| AGGGGATA | -0.241 |
| ACTAGACA | -0.0648 |
| ACCTCACC | -0.157 |
| TCTACAGA | 0.00699 |
| ACTTGCGA | -0.0265 |
| ACTAAAAT | -0.0437 |
| CCTCTCAA | -0.0974 |
| CTTCGCGC | 0.269 |
| CATGAGAG | -0.158 |
| CTATACAA | -0.0334 |
| CCGTGGCG | 0.257 |
| AAGCCGAT | 0.15 |
| ATATAATG | -0.134 |
| AGTATACA | -0.0928 |

Repeated from above (series 3):
| Strand | RBNS enrichment (R) |
| --- | --- |
| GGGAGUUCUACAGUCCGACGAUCCCACACUAUGUGUGUUGUUUCCAUAGCUCUUCACUUCCUCCAGAAGCCUCCUUACAUUAAAAAGCCUUACAGUUAUCCUGCAAGGGACAGGAAGGUCUGAUUUGCAGGAUUGGAAUUCUCGGGUGCCAA | 0.442 |
| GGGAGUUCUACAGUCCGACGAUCUGUCACUCCUCACCUGAGAGGAAGCAGUGGGUGGUCUGACUCUGCAGCCCAGAGACACAGGAGGCUUCAGGGACAGUGCCCUACUCUAGAAACACCUGCCACUCUAGAUAUGGAAUUCUCGGGUGCCAA | 0.394 |
| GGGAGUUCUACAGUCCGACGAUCCUCUUUACAAACUGGCAUCUUAAGUUUUAGUGCCAUGUCGCUGUAGUCUGCUGCUUUCCUGGGUGGAUGAACCUCUUUAUUAUGGUAACUUCUGUGCUGCUUUGCCCCUAUGGAAUUCUCGGGUGCCAA | 0.85 |
| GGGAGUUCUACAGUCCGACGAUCUGGGGAAGAGUGAAAGAUAUAAAGUAACCUAAUUAAAUGUAUGGAAUUGCUAUUUUUAUAGCUGAUAUAGUUACACCUCAAGCCCCUCAGGGGUAACAACUAACAAACACUGGAAUUCUCGGGUGCCAA | 1.06 |
| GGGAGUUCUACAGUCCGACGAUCUUGAGCUAAAAUAACUUUUGUAAAGAUUAAGCUCAUUUAGAUUUUUUUUAAAGUAUUGCAGCAGGAUCUGCUGCAGGGUUCUGUUGUUUUGUUUUGCUUAUUUUUAAAUUUGGAAUUCUCGGGUGCCAA | 1.12 |
| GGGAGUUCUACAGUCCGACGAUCCCUCUGCCUUCUUUCCUGGAACUCAGGGUGUGGGGACUGAGCCUGUAGGGGACAGCAUGCCGUCUUGCUGUGGCCACUCCCAAGUGUGCCCUCUUCCCUCUUUACACAUCUGGAAUUCUCGGGUGCCAA | 12.3 |
| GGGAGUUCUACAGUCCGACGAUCAGGUCACCCUUGCACGGGUUUGGCCAACACCAUGAAGGAGUUGCCUUGGAGUUUCACCUGCAUAGCUUGCAUCAGCCCCGAGAGGGCAAAGGAGGGUCAGCCUUCCACUUUGGAAUUCUCGGGUGCCAA | 0.354 |
